Measured values gathered from unrelated publications.

`CC(C)(C)OC(=O)N[C@H](Cc1ccccc1)[C@@H](O)CN1CCC(N2CCCCC2)CC1` gave a Cmax of 200 ng/mL (HPLC; Swiss mouse, plasma; subcutaneous, 20 mg/kg, single dose).
For `COc1cccc2c1C(=O)c1c(O)c3c(c(O)c1C2=O)C[C@@](O)(C(=O)CO)C[C@@H]3O[C@H]1C[C@H](N)[C@@H](O)[C@H](C)O1`, the Cmax was 22100 ng/mL (male Kunming mouse, plasma; intravenous, 5 mg/kg).
With `C[C@H]1CN(C(=O)c2cn(-c3ccnc(N)n3)c3cc(C#CC4(O)CCCCC4)ccc23)CCN1` the Cmax was 340 ng/mL (CD-1 mouse, plasma; oral, 10 mg/kg).
The Cmax of `Cc1cc(O)cc(O)c1C(=O)c1c2c3c(c(O)cc(C)c3oc1=O)C(=O)c1c(O)cc(O)cc1-2` is reported as 21000 ng/mL (male Kunming mouse, plasma; intraperitoneal, 15 mg/kg).
For `Cc1cccc(O[C@H]2CCC[C@@H](C(C)CNCc3ccncc3)C2)c1` (relative stereo), the Cmax was 1820 ng/mL (female C57BL/6 mouse, plasma; oral, 25 mg/kg).
The Cmax of `[2H]C([2H])(N)C([2H])([2H])NC(=O)c1cc(C2CC2)nc2c1cnn2C(C)C` is reported as 2640 ng/mL (female BALB/c mouse, plasma; intraperitoneal, 50 mg/kg).
With `O=C1NC(=O)C(C2CCOc3cc(Oc4ccc(C(F)(F)F)cc4Cl)ccc32)S1` (stereo not shown) the Cmax was 22 µM (mouse, plasma; oral, 30 mg/kg).
`Cc1nc(NC(=O)N2CCC[C@H]2C(N)=O)sc1-c1csc(C(C)(C)C)n1` has a Cmax of 8.25 µM (male CD-1 mouse, plasma; intraperitoneal, 10 mg/kg, single dose).
For `Nc1ccn(C[C@@H](CO)OCP(=O)(O)OCCCS(=O)(=O)CCCCCCCCCCCCCC2CCC2)c(=O)n1`, the Cmax was 2620 ng/mL (mouse, plasma; intravenous, 3 mg/kg, single dose).
With `N#Cc1cnc2cc(OCC3CCNCC3)c(F)cc2c1Nc1cc(F)c(OCc2cccc(Cl)n2)cc1Cl` the Cmax was 384 ng/mL (female CD-1 mouse, plasma; oral, 20 mg/kg).
`CCC(=C(c1ccc(Cl)cc1)c1ccc(OCCN2CCOCC2)cc1)c1ccc(OC)cc1` has a Cmax of 9400 ng/mL (male C57BL/6 mouse, plasma; oral, 400 mg/kg, single dose).
`CCC(CC)CNC(=N)NC(=N)NCCCCCCNC(=N)NC(=N)NCC(CC)CC` gave a Cmax of 540 ng/mL (female BALB/c mouse, plasma; intraperitoneal, 5 mg/kg, single dose).
With `CCCc1nc2cc(C(=O)N3CCC4(CC3)CC(=O)c3cc5c(cc3O4)OC(C)(C)CC5)cc(C)c2[nH]1` the Cmax was 7350 ng/mL (male C57BL/6 mouse, plasma; oral, 50 mg/kg).
With `CCC/C(=C\C1=C(OC)C(=O)c2ccccc2C1=O)C(=O)NOC` the Cmax was 476 ng/mL (mouse, plasma; oral, 25 mg/kg).
`CN1CCc2cc(Nc3ncc(C(F)(F)F)c(NCc4cc[nH]n4)n3)ccc2C1` gave a Cmax of 1360 ng/mL (C57BL/6 mouse, plasma; oral, 50 mg/kg, single dose).
With `COc1ccc2c(c1)CCn1c[n+]3c(c1-2)-c1ccc(OC)cc1CC3` the Cmax was 486 ng/mL (male C57BL/6 mouse, plasma; intraperitoneal, 10 mg/kg, single dose).
`CCC/C(=C\C1=C(C(F)(F)F)C(=O)c2ccccc2C1=O)C(=O)N(CC)CC` has a Cmax of < 10 ng/mL (mouse, plasma; oral, 25 mg/kg).
`O=C(c1ccccc1)N1C(c2ccc(OCC3CCN(CCCF)C3)cc2)c2ccc(O)cc2CC12CC2` (stereo not shown) has a Cmax of 5050 ng/mL (C57BL/6 mouse, plasma; intraperitoneal, 25 mg/kg).
For `CN1CCC(N[C@@H]2CCc3[nH]c4c(C(N)=O)ccc(-c5ccccc5Cl)c4c3C2)CC1`, the Cmax was 653 ng/mL (mouse, plasma; intravenous, 2 mg/kg).
`CC(C)(C)NCC(SS(=O)(=O)O)c1ccccc1` (stereo not shown) gave a Cmax of 710 ng/mL (female Swiss mouse, plasma; oral, 100 mg/kg).
The Cmax of `CCCCCCCCCCCCCCCC(=O)OCC(CSC[C@H](N)C(=O)NCC(=O)N[C@@H](CC(=O)O)C(=O)N1CCC[C@H]1C(=O)N[C@@H](CCCCN)C(=O)N[C@@H](Cc1c[nH]cn1)C(=O)N1CCC[C@H]1C(=O)N[C@@H](CCCCN)C(=O)N[C@@H](CO)C(=O)N[C@@H](Cc1ccccc1)C(=O)O)OC(=O)CCCCCCCCCCCCCCC` (stereo partly shown) is reported as 115 ng/mL (mouse, plasma; subcutaneous, 0.4 mg/kg).
`C[N+]1(CC(=O)OC2CCCCCCCCCCC2)CCCCC1` has a Cmax of 6.7 ng/mL (mouse, plasma; intraperitoneal, 1 mg/kg, single dose).
`CN(C)CCNC(=O)/C=C/[C@H](Cc1ccccc1)Nc1ccnc2cc(Cl)ccc12` has a Cmax of 10.5 ng/mL (CD-1 mouse, plasma; oral, 5 mg/kg, single dose).
With `O=C1CCC(N2C(=O)c3ccc(N4CCC(C(=O)N5CCC(CCN6CCC(CNC(=O)c7cccc(-c8noc(C(F)(F)F)n8)c7)(c7nc(-c8ccccc8)cs7)CC6)CC5)CC4)cc3C2=O)C(=O)N1` (stereo not shown) the Cmax was 238 ng/mL (CD-1 mouse, plasma; oral, 30 mg/kg).
`Nc1ccn(C[C@@H](CO)OCP(=O)(O)OCCCS(=O)(=O)CCCCCCCCCCC2CCC2)c(=O)n1` gave a Cmax of 1160 ng/mL (mouse, plasma; intravenous, 3 mg/kg, single dose).
`CC(C)Cn1c(SCC(=O)N2CCc3ccccc3C2)nc2cc(Cl)ccc2c1=O` gave a Cmax of 0.797 µM (male C57BL/6 mouse, plasma; intraperitoneal, 10 mg/kg).
For `CCc1nc(N)nc(N)c1C#C[C@H](C)c1cc(-c2cc(C)nc(C)c2)ccc1Cl`, the Cmax was 4100 ng/mL (mouse, plasma; intraperitoneal, 5 mg/kg).
With `CCS(=O)(=O)c1ccccc1C(=O)N1CCN(c2nc3ccc(F)cc3s2)C[C@@H]1C` the Cmax was 1660 ng/mL (mouse, plasma; intravenous, 3 mg/kg).
The Cmax of `O=C(Nc1ccc(OC(F)(F)F)cc1)N1CCC(Cc2cccc(Oc3ccc(C(F)(F)F)cn3)c2)CC1` is reported as 0.098 µM (male Swiss mouse, blood; oral, 1 mg/kg).
The Cmax of `O=C1OC2(c3ccccc31)c1cc(I)c(O)c(I)c1Oc1c2cc(I)c(O)c1I` is reported as 26800 ng/mL (female C57BL/6 mouse, plasma; intraperitoneal, 50 mg/kg).
`COc1cc2c(Oc3ccc(Nc4nn(C)cc4C(=O)NC4CCCCC4)cc3F)ccnc2cc1OCCCCCCC(=O)NO` has a Cmax of 1310 ng/mL (mouse, plasma; intraperitoneal, 10 mg/kg).
The Cmax of `C[C@@H](COc1ccc(F)cc1)C(=O)n1nc(N)c2ccc(CO)cc21` is reported as 7.4 µM (male C57BL/6 mouse, plasma; intraperitoneal, 10 mg/kg).
The Cmax of `CN1CC[C@H](c2c(O)cc(O)c3c(=O)cc(/C=C/c4c(Cl)cccc4Cl)oc23)[C@H](O)C1` is reported as 1030 ng/mL (male BALB/c mouse, plasma; oral, 50 mg/kg).
For `NS(=O)(=O)NCC(F)(F)c1ccccc1F`, the Cmax was 3130 ng/mL (mouse, plasma; oral, 5 mg/kg).
